{"data": "Measurements gathered from unrelated publications", "organism": "Klebsiella pneumoniae", "note": "Lines come from different studies, so protocols differ."}
{"SMILES": "C#CCNC(=O)[C@H]1NC(=O)[C@H]2NC(=O)[C@H](NC(=O)[C@@H]3NC(=O)[C@H](CC(N)=O)NC(=O)[C@H](NC(=O)[C@@H](CC(C)C)NC)[C@H](O)c4ccc(c(Cl)c4)Oc4cc3cc(c4O[C@@H]3O[C@H](CO)[C@@H](O)[C@H](O)[C@H]3O[C@H]3C[C@](C)(N)[C@H](O)[C@H](C)O3)Oc3ccc(cc3Cl)[C@H]2O)c2ccc(O)c(c2)-c2c(O)cc(O)cc21", "test": "broth microdilution", "system": "ATCC 27736, cation-adjusted Mueller-Hinton broth", "setting": "18 to 20 h, 37 °C, 0.002% polysorbate 80", "MIC": "> 128 µg/mL"}
{"SMILES": "CC[C@H](C)[C@H](NC(=O)[C@H](CCCCN)NC(=O)[C@@H](NC(=O)[C@@H](NC(=O)[C@H](CC(C)C)NC(=O)[C@H](CCCNC(=N)N)NC(=O)[C@@H](NC(=O)[C@H](CC(C)C)NC(=O)[C@H](CCCNC(=N)N)NC(=O)CNC(=O)[C@H](Cc1ccccc1)NC(=O)[C@@H](N)CCCNC(=N)N)[C@@H](C)CC)[C@@H](C)CC)C(C)C)C(=O)N[C@@H](C)C(=O)N[C@@H](CCCNC(=N)N)C(=O)N[C@@H](CCCNC(=N)N)C(=O)N[C@@H](C)C(=O)N[C@@H](Cc1c[nH]cn1)C(=O)N[C@@H](CCCNC(=N)N)C(=O)N[C@@H](C)C(=O)N[C@@H](CCCNC(=N)N)C(=O)N[C@@H](CO)C(=O)N[C@@H](C)C(=O)N[C@H](C(=O)N[C@@H](CCCCN)C(=O)N[C@@H](C)C(=O)N[C@@H](C)C(=O)N[C@@H](CO)C(=O)N[C@@H](CC(N)=O)C(=O)N[C@H](C(=O)N[C@@H](C)C(=O)N[C@@H](C)C(=O)N[C@@H](CC(C)C)C(=O)N[C@@H](C)C(=O)N[C@@H](Cc1c[nH]cn1)C(=O)NCC(=O)N[C@@H](C)C(N)=O)C(C)C)C(C)C", "test": "bacterial growth, broth microdilution", "system": "cation-adjusted Mueller Hinton broth", "setting": "18 h, 37 °C", "MIC": "≤ 0.064 µM"}
{"SMILES": "CC[C@H](C)[C@H](N)C(=O)N[C@@H](CCCNC(=N)N)C(=O)N[C@H](C(=O)N[C@@H](Cc1c[nH]c2ccccc12)C(=O)N[C@@H](Cc1ccccc1)C(=O)N[C@H](C(=O)N[C@@H](CCCCN)C(=O)N[C@H](C(=O)N[C@@H](CCCNC(=N)N)C(=O)N[C@@H](CCCCN)C(=O)N[C@@H](CCSC)C(=O)N[C@@H](CCCCN)C(=O)N[C@@H](C)C(=O)N[C@H](C(=O)N[C@@H](Cc1ccc(O)cc1)C(=O)N[C@@H](Cc1c[nH]cn1)C(=O)N[C@H](C(N)=O)[C@@H](C)O)[C@@H](C)CC)C(C)C)[C@@H](C)CC)C(C)C", "test": "broth dilution", "system": "ATCC 700603", "MIC": "25 µM"}
{"SMILES": "CC1(C)[C@H](NC(=O)/C(=N\\OC2(C(=O)O)CCCCC2)c2csc(N)n2)C(=O)N1OS(=O)(=O)O", "test": "agar dilution", "system": "09-20, NDM-1", "MIC": "2 µg/mL"}
{"SMILES": "CCCCCCCC(=O)N[C@@H](CCN)C(=O)N[C@H](C(=O)N[C@@H](CCN)C(=O)N[C@H]1CCNC(=O)[C@H]([C@@H](C)O)NC(=O)[C@H](CCN)NC(=O)[C@H](CCN)NC(=O)[C@H](CC(C)C)NC(=O)[C@@H](Cc2c(F)c(F)c(F)c(F)c2F)NC(=O)[C@H](CCN)NC1=O)[C@@H](C)O", "test": "broth microdilution", "system": "ATCC 13883, colistin-susceptible", "MIC": "4 µg/mL"}
{"SMILES": "CC[C@H](C)[C@H](NC(=O)[C@@H](CCCNC(=N)N)NC(=O)[C@H](CCCNC(=N)N)NC(=O)[C@@H]1CCCN1C(=O)[C@@H]1CCCN1C(=O)[C@H](CCCNC(=N)N)NC(=O)[C@@H]1CCCN1C(=O)[C@H](CCCNC(=N)N)NC(=O)[C@@H]1CCCN1C(=O)[C@H](CC(C)C)NC(=O)[C@H](Cc1cc(I)c(O)c(I)c1)NC(=O)[C@@H]1CCCN1C(=O)[C@@H]1CCCN1C(=O)[C@H](CCCCN)NC(=O)[C@H](CC(=O)O)NC(=O)[C@@H](N)C(C)C)C(=O)N[C@@H](Cc1ccc(O)cc1)C(=O)N[C@@H](CC(N)=O)C(=O)N[C@H](CCCNC(=N)N)C(N)=O", "test": "broth microdilution", "system": "DSM 681", "setting": "18 h, 37 °C, 25% MHB2", "MIC": "> 128 µg/mL"}
{"SMILES": "COc1ccc(O)c(/C=N/[C@@H]2CCCC[C@@H]2/N=C/c2c(O)ccc3ccc(OC)cc23)c1", "test": "bacterial growth, broth microdilution", "system": "carbapenem-resistant clinical isolate", "MIC": "> 40 µM"}
{"SMILES": "CC1(C)[C@H](NC(=O)/C(=N\\OC2(C(=O)O)CC2)c2nsc(N)n2)C(=O)N1OS(=O)(=O)O", "test": "agar dilution", "system": "09-20, NDM-1", "MIC": "2 µg/mL"}
{"SMILES": "CC[C@H](C)[C@H](NC(=O)[C@@H](CCCNC(=N)N)NC(=O)[C@H](CCCNC(=N)N)NC(=O)[C@@H]1CCCN1C(=O)[C@@H]1CCCN1C(=O)[C@H](CCCNC(=N)N)NC(=O)[C@@H]1CCCN1C(=O)[C@H](CCCNC(=N)N)NC(=O)[C@@H]1CCCN1C(=O)[C@H](CC(C)C)NC(=O)[C@H](Cc1ccc(O)cc1)NC(=O)[C@@H]1CCCN1C(=O)[C@H](Cc1ccc(O)cc1)NC(=O)[C@H](CCCCN)NC(=O)[C@H](CC(=O)O)NC(=O)[C@@H](N)C(C)C)C(=O)N[C@@H](Cc1ccc(O)cc1)C(=O)N[C@@H](CC(N)=O)C(=O)N[C@H](CCCNC(=N)N)C(N)=O", "test": "broth microdilution", "system": "DSM 681", "setting": "18 h, 37 °C, 25% MHB2", "MIC": "16 µg/mL"}
{"SMILES": "CC[C@H](C)[C@H](NC(=O)[C@H](CCCNC(=N)N)NC(=O)[C@H](Cc1c[nH]c2ccccc12)NC(=O)[C@H](Cc1c[nH]c2ccccc12)NC(=O)[C@H](CCCNC(=N)N)NC(=O)[C@@H](N)CCCNC(=N)N)C(=O)N[C@@H](Cc1c[nH]c2ccccc12)C(N)=O", "system": "13883", "MIC": "128 µg/mL"}
{"note": "Repeated from above:"}
{"SMILES": "CC[C@H](C)[C@H](NC(=O)[C@H](CCCCN)NC(=O)[C@@H](NC(=O)[C@@H](NC(=O)[C@H](CC(C)C)NC(=O)[C@H](CCCNC(=N)N)NC(=O)[C@@H](NC(=O)[C@H](CC(C)C)NC(=O)[C@H](CCCNC(=N)N)NC(=O)CNC(=O)[C@H](Cc1ccccc1)NC(=O)[C@@H](N)CCCNC(=N)N)[C@@H](C)CC)[C@@H](C)CC)C(C)C)C(=O)N[C@@H](C)C(=O)N[C@@H](CCCNC(=N)N)C(=O)N[C@@H](CCCNC(=N)N)C(=O)N[C@@H](C)C(=O)N[C@@H](Cc1c[nH]cn1)C(=O)N[C@@H](CCCNC(=N)N)C(=O)N[C@@H](C)C(=O)N[C@@H](CCCNC(=N)N)C(=O)N[C@@H](CO)C(=O)N[C@@H](C)C(=O)N[C@H](C(=O)N[C@@H](CCCCN)C(=O)N[C@@H](C)C(=O)N[C@@H](C)C(=O)N[C@@H](CO)C(=O)N[C@@H](CC(N)=O)C(=O)N[C@H](C(=O)N[C@@H](C)C(=O)N[C@@H](C)C(=O)N[C@@H](CC(C)C)C(=O)N[C@@H](C)C(=O)N[C@@H](Cc1c[nH]cn1)C(=O)NCC(=O)N[C@@H](C)C(N)=O)C(C)C)C(C)C", "test": "bacterial growth, broth microdilution", "system": "cation-adjusted Mueller Hinton broth", "setting": "18 h, 37 °C", "MIC": "≤ 0.064 µM"}
